# Results gathered from unrelated publications.
# Compare with care: the assays were run in different laboratories. Several values in a cell are separate wells, animals, samples, runs or records. ± gives the spread as reported.
SMILES,organism,test,test system,setting,scale,measurement,result
Nc1c(C(=O)c2ccc(Br)cc2)sc(S)c1-c1nc2ccccc2s1,hepatitis A virus,plaque reduction,HM 175,"non-toxic dose NG, mean over three titres",,viral reduction,0%
CC(C)(C)NCC(SS(=O)(=O)O)c1ccccc1 (stereo not shown),Schistosoma mansoni,,"Swiss Webster mouse, infected","oral, 600 mg/kg single dose, 44 days p.i., dosed day 15 p.i.",,spleen weight,0.23 g and 0.25 g and 0.15 g and 0.46 g
CN(C(=O)[C@H](Cc1ccccc1)NC(=O)Cc1c[nH]c2ccc(O)cc12)c1ccc(Cl)cc1,HIV-1,infectivity of progeny virus,"HEK293FT, NL4-3",,,EC50,170 ± 20 nM
C[C@@H]1C(=O)O[C@@H](C)/C=C/C=C\[C@@H](C)[C@@H]2C=C[C@@H]3C[C@@]4(C)O[C@H]4[C@@H](C)[C@H]3[C@@H]2C(=O)C(Cl)(Cl)C1=O,Staphylococcus aureus,,MRSA clinical isolate,resistant PEN/CIP/MXF,,MIC,0.1 µg/mL
Cc1cc(C(=O)Nc2nc3cccc(C)c3n2[C@H]2CCCCN(C(=O)/C=C/CN(C)C)C2)ccn1,Trypanosoma brucei brucei,,Lister 427,"50 µM, 48 h, kill kinetics",,proliferation,1.76% and 2.92% and 2.84% and 0.909% and 0.985% and 3.07%
OC(Cn1cncn1)(Cn1cc(-[c-]2cccc2)nn1)c1ccc(F)cc1F.[Cl-].[Co+3].c1cc[cH-]c1 (racemic),Brugia pahangi,"motility, Worminator",adult female,"50 µM, 2 d",,inhibition,6%
CC(C)[C@@H](C)Nc1nc(-c2cccs2)nc(Cl)c1-c1c(F)cc(F)cc1F,Schistosoma mansoni,worm motility,adult worms ex vivo,24 h,,EC50,490 nM
CC1=C(Cn2cc(CN3CCC(F)(F)CC3)nn2)C(=O)c2ccccc2C1=O,Schistosoma mansoni,,adult worms,"25 µM, 72 h",,killing,51.9%
CC(=O)OC[C@H]1O[C@@H](Sc2sc(C(=O)c3ccc(Br)cc3)c(N)c2-c2nc3ccccc3s2)[C@H](OC(C)=O)[C@@H](OC(C)=O)[C@H]1OC(C)=O,hepatitis A virus,plaque reduction,HM 175,non-toxic concentration,,viral titre reduction,20%
C=C(NC(=O)c1csc(-c2nc3c(cc2O)-c2nc(cs2)C(=O)NC(C(C)O)C(=O)NC(=C(C)OC)c2nc(cs2)C(=O)NC2c4nc(cs4)C(=O)NC(COC(=O)c4c5c6c(cccc6n4O)COC(=O)C(OC4CC(C)(O)C(N(C)C)C(C)O4)C2OC5)c2nc-3cs2)n1)C(N)=O (stereo not shown),Streptococcus pneumoniae,,"-4, immunocompromised mice, lung","8 mg/kg/day thrice daily, 24 h post-dose",,lung bacterial load,4.78 log10 CFU/lung
CCC1(CC)CC(=O)N(C2c3cc(C(=O)NC4c5ccccc5CC4O)ccc3OC2(C)COC)C(=N)N1 (stereo not shown),Plasmodium falciparum,parasite growth,,"72 h, blood stage",,EC50,0.4 nM
CC1=C(Cn2cc(CN3CCC(=O)CC3)nn2)C(=O)c2ccccc2C1=O,Schistosoma mansoni,,adult worms,"10 µM, 72 h",,killing,47.2%
CCCCC(CSS(=O)(=O)O)NCC(C)C (stereo not shown),Schistosoma mansoni,,infected mice,"100 mg/kg x4, dosed from day 11, perfusion day 25",reference: vehicle,worm burden reduction,-12%
CC(=O)OC[C@H]1O[C@@H](Sc2sc(C(=O)c3ccc(C)cc3)c(N)c2-c2nc3ccccc3s2)[C@H](OC(C)=O)[C@@H](OC(C)=O)[C@@H]1OC(C)=O,hepatitis A virus,plaque reduction,HM 175,"non-toxic dose NG, mean over three titres",,viral reduction,10%
CC1(C)NC(=O)N(c2ccc(F)c(C(C)(F)F)c2)C1=O,Schistosoma mansoni,,"adult stage, infected mice","oral, 25 mg/kg",reference: untreated infected,worm burden reduction,95%
COC1C=COC2(C)Oc3c(C)c(O)c4c(c3C2=O)C2=NC3(CCN(CC(C)C)CC3)NC2=C(NC(=O)C(C)=CC=CC(C)C(O)C(C)C(O)C(C)C(OC(=O)Nc2cccnn2)C1C)C4=O (stereo not shown),Mycobacteroides abscessus,bacterial growth,subsp. abscessus ATCC 19977,,,IC50,23 nM

# A few entries again:
SMILES,organism,test,test system,setting,scale,measurement,result
CC(=O)OC[C@H]1O[C@@H](Sc2sc(C(=O)c3ccc(C)cc3)c(N)c2-c2nc3ccccc3s2)[C@H](OC(C)=O)[C@@H](OC(C)=O)[C@@H]1OC(C)=O,hepatitis A virus,plaque reduction,HM 175,"non-toxic dose NG, mean over three titres",,viral reduction,10%
CC(C)(C)NCC(SS(=O)(=O)O)c1ccccc1 (stereo not shown),Schistosoma mansoni,,"Swiss Webster mouse, infected","oral, 600 mg/kg single dose, 44 days p.i., dosed day 15 p.i.",,spleen weight,0.23 g and 0.25 g and 0.15 g and 0.46 g
